Measurements gathered from unrelated publications.
Protocols differ between the studies behind these lines. Values joined by “and” are separate records of one study, mostly repeats; a detail may differ. Numbers after ± are the reported error.

SMILES	test	test system	conditions	how to read	endpoint	result
CCCCC1(CCCC)CN(c2ccccc2)c2cc(SC)c(OCC(=O)N[C@@H](C(=O)NCC(=O)O)c3ccccc3)cc2S(=O)(=O)C1	measured: 7α-hydroxy-4-cholesten-3-one	human, plasma	5 mg once daily, day 2		plasma C4	47 ng/mL
CO[C@H]1CC[C@H](N2C(=O)CNc3ncc(-c4ccc(C(C)(C)O)nc4)nc32)CC1	flow cytometry	stimulated T cells, human, blood	45 mg single dose, 5 h, median	reference: baseline	p4EBP1 change from baseline	-48%
NC(N)=O	binding, equilibrium dialysis LC-MS		5 µM, thermostabilized A2AR-BRIL construct	reference: no-protein control, direction not given	z-scored log2 fold change	0.249
Cn1cc(Nc2nc(N)nc(-c3cccc(-n4ccc5cc(C6CC6)cc(F)c5c4=O)c3CO)n2)cn1	CD63 upregulation, anti-IgE-induced	human, multiple ascending dose, whole blood basophils ex vivo	50 mg twice daily, day 14, 4 h		inhibition	74.8%
Cn1cc(Nc2nccc(-c3ccc4c(c3)CN(C3COC3)CC[C@H]4NC(=O)c3cn(C(C)(C)C)nn3)n2)cn1	measured: p14/p19ARF in tumour suppression	splenic B cells, mice	30 mg/kg, IgD-activated in vivo	reference: vehicle, direction not given	pathway activation z-score	-1.13
N#Cc1ccc2c(c1)[C@H]1CCCN(C(=O)c3ccc4[nH]cnc4c3)[C@H]1C2	meal tolerance test	human, Phase II trial	240 mg once daily, day 28, AUC0-2 h, adjusted mean	reference: baseline	insulin AUC change	-79.1 pmol/h/L
Cc1c(C)n(Cc2cccc(OC(C)(C)C(=O)O)c2)c2ccc(C(=O)N[C@@H](C)c3ccc(C(C)(C)C)cc3)cc12		C57BL/6 mouse, diet-induced obesity, L4 vertebra	dose not given		tissue volume	2.79 ± 0.176 mm3
Oc1nc2nonc2cc1Nc1c(F)c(F)c(F)c(F)c1F		obese C57BL/6J mice, Western diet 19 weeks	oral gavage, 130 mg/kg/day, fasting		plasma free fatty acids	no effect
C[C@H](Oc1ccc(Br)cc1-c1ccon1)C(=O)O	last response peak	human, tibialis anterior muscle	400 mg, 15 Hz, single ascending dose		difference from placebo	7.29%
CC[C@@H](C)[C@H](N)C(=O)O	binding, equilibrium dialysis LC-MS		5 µM, thermostabilized A2AR-BRIL construct	reference: no-protein control, direction not given	z-scored log2 fold change	0.176
CO[C@H]1C[C@@H]2CC[C@@H](C)[C@@](O)(O2)C(=O)C(=O)N2CCCC[C@H]2C(=O)O[C@H]([C@H](C)C[C@@H]2CC[C@@H](OC(=O)NCCOCCOCCOCCOCCOCCOCCOCCOCCC(=O)N3CCc4cc(Cn5nc(-c6ccc7oc(N)nc7c6)c6c(N)ncnc65)ccc4C3)[C@H](OC)C2)C[C@@H](O)[C@H](C)/C=C(\C)[C@@H](O)[C@@H](OC)C(=O)[C@H](C)C[C@H](C)/C=C/C=C/C=C/1C	measured: S6RP phospho-Ser240/244	mouse, HCC1954 xenograft, tumour	1 to 3 mg/kg, weekly, end of dosing interval		phospho-S6RP level	decreased
C[C@H]1C[C@H]2CSC(N)=N[C@@]2(c2nc(NC(=O)c3ccc(OC(F)F)cn3)cs2)CO1	measured: total Aβ	healthy adults, plasma	160 mg single dose, 48 h post-dose	reference: placebo	percent change from baseline	-53.8%
N[C@@H](Cc1cc(I)c(O)c(I)c1)C(=O)O	binding, equilibrium dialysis LC-MS		5 µM, thermostabilized A2AR-BRIL construct	reference: no-protein control, direction not given	z-scored log2 fold change	0.271
N#Cc1ccn2c(-c3ccncc3)c(-c3ccc(F)cc3)nc2c1	kinase binding, competitor, MIB/MS competition, measured: NIK1	Candida albicans cell lysate	100 nM	reference: DMSO	log2 fold change	-0.468
COc1ccc(-c2cncc(N[C@@H](C)c3cccc(NC(=O)c4cncc(C)c4)c3)n2)cc1OC	measured: rno-miR-142-5p	rat SU5416/hypoxia model, lung	dose not given	reference: SU5416/hypoxia vehicle	fold change	0.745
N#Cc1ccc2c(-c3ccncc3)c(-c3ccc(F)cc3)nn2c1	kinase binding, competitor, MIB/MS competition, measured: RTK1	Candida albicans cell lysate	1 µM	reference: DMSO	log2 fold change	-0.191
CC[C@@H]1[C@H](F)C(=O)N[C@@H]1COc1nccc2cc(C(N)=O)c(OC)cc12	ATP-site probe binding, ActivX profiling, measured: CDK11, CDK8	THP-1 cell lysate	0.04 mM, Lys2 site		inhibition	-11.1%
OC(CCN1CCCCC1)(c1ccccc1)C1CC2C=CC1C2 (centres unmarked)	resting-state EEG	healthy elderly humans	oral, 4 mg, eyes open, LS mean	reference: baseline	change in EEG Beta1-power Pz-O1	-8.5%
CCN1[C@@H](C(=O)NC23CCC(C(=O)O)(CC2)CC3)[C@H](c2cccc(Cl)c2F)[C@]2(C(=O)Nc3cc(Cl)ccc32)C12CCCCC2		human, advanced solid tumours, MDM2-amplified TP53 wild type	dose not given, eight patients, RECIST		objective response rate	25%
O=C(OC(C(F)(F)F)C(F)(F)F)N1CCN(Cc2cccc(Oc3ccccc3)c2)CC1	PET	rhesus monkey, hippocampus	intravenous, 0.1 mg/kg, pretreatment blocking, added: [18F]T-401		tracer distribution volume	4.27 mL/cm3
O=c1cc(-c2ccc(O)cc2)oc2c([C@@H]3OC[C@H](O)[C@H](O)[C@H]3O)c(O)c([C@@H]3O[C@H](CO)[C@@H](O)[C@H](O)[C@H]3O)c(O)c12	RT-qPCR	HFpEF mice, AngII-treated, heart	dose not given	reference: AngII alone	ANP mRNA level	decreased
C[C@@H](O)CCOC(=O)C[C@@H](C)O	measured: non-esterified fatty acids	human, plasma	60 min		log2 level	-2.26 ± 0.89 mmol/L
C[C@@H](NC(=O)N1C(=O)[C@H](Cc2ccnc(N)c2)[C@H]1C(=O)O)C1CCCCC1		human	iv infusion, 0.3 mg/kg/h, 24 h, unit not given	reference: baseline	PT AUEC	148
COc1cc2cc(-c3ccc(CC(=O)Nc4cc(C(C)(C)C(F)(F)F)no4)cn3)cnc2cc1OC	RECIST v1.1	human RET-altered solid tumours	13 100 mg tablets, phase I		objective response rate	50%
C[C@H]1O[C@@H](O[C@H]2CC[C@@]3(C)[C@@H](CC[C@]4(C)[C@@H]3C=C[C@]35OC[C@@]6(CCC(C)(C)C[C@H]63)[C@@H](O)C[C@]54C)[C@]2(C)CO)[C@H](O)[C@@H](O[C@@H]2O[C@H](CO)[C@@H](O)[C@H](O)[C@H]2O)[C@H]1O	Western blot, measured: Deptor	chronic-plus-binge ethanol-fed mice, liver	dose not given, dose level -M, unit not given	reference: β-actin	protein level	1.2 and 0.964 and 1.06

SMILES	test	test system	conditions	how to read	endpoint	result
Cc1cc(C)c(CNC(=O)c2cc(Cl)c3c(c2C)O[C@@](C)([C@H]2CC[C@H](N(C)C)CC2)O3)c(=O)[nH]1	IWG 2007 criteria	human, relapsed/refractory B-cell NHL	dose not given		best overall response PR	37%
CC(c1cc2ccccc2s1)N(O)C(N)=O (centres unmarked)	measured: 5-HETE	human whole blood	3 µM, added: Escherichia coli		amount	515 ± 130 pg/mL blood
O=C(COc1ccc(Cl)cc1)NC12CC(c3nnc([C@H]4C[C@@H](OC(F)(F)F)C4)o3)(C1)C2		healthy human, PBMC	oral, 200 mg single dose, day 1, 4 h post-dose, median, added: sodium arsenite ex vivo	reference: baseline	CHAC1 mRNA change	-54.4%
O=C(O)[C@@H]1CCC(O)=N1	binding, equilibrium dialysis LC-MS		5 µM, thermostabilized A2AR-BRIL construct	reference: no-protein control, direction not given	z-scored log2 fold change	0.276
C=CCn1c(=O)c2cnc(Nc3ccc(N4CCN(C)CC4)cc3)nc2n1-c1ccc2c(n1)[C@@](O)(CC)CC2		SK-MES-1 xenograft, BALB/c nude mice	oral, 80 mg/kg once daily x 22, day 21		tumour volume difference	696 ± 22.3 mm3
Cc1cc2nc3c(=O)[nH]c(=O)nc-3n(C[C@H](O)[C@H](O)[C@H](O)COP(=O)(O)O)c2cc1C	binding, equilibrium dialysis LC-MS		5 µM, thermostabilized A2AR-BRIL construct	reference: no-protein control, direction not given	z-scored log2 fold change	-0.188
CCO[C@H]1CCN(Cc2c(OC)cc(C)c3[nH]ccc23)[C@H](c2ccc(C(=O)O)cc2)C1		PNH patients, blood	oral, 50 mg then 200 mg, week 4, mean absolute change	reference: baseline	C3d-positive type III RBCs	-1.6%
CC(=O)Oc1cc2c(s1)CCN(C(C(=O)C1CC1)c1ccccc1F)C2 (centres unmarked)	platelet aggregation, light transmission aggregometry	human patients, platelet-rich plasma	dose not given, 3 h, added: TRAP 5 µM		patients with IPA above 80%	9.5%
NC(N)=NCC(=O)O	binding, equilibrium dialysis LC-MS		5 µM, thermostabilized A2AR-BRIL construct	reference: no-protein control, direction not given	z-scored log2 fold change	0.276
C[C@@H]1C[C@H]2[C@@H]3CCC4=CC(=O)C=C[C@]4(C)[C@@]3(F)[C@@H](O)C[C@]2(C)[C@@]1(O)C(=O)CO		mouse LPS-induced ALI, isolated lungs ex vivo	intratracheal, 2 µmol/kg, dosed 1 h after LPS	reference: untreated ALI mice	NIRF signal reduction	87%
CC(C)NCC(O)c1ccc(O)c(O)c1 (centres unmarked)		ventricular cardiomyocytes, C57BL/6 mouse	dose not given, 0.416 s		sarcomere length	1.72 µm
CCNC(=O)[C@@H]1CCCN1C(=O)[C@H](CCCNC(=N)N)NC(=O)[C@H](CC(C)C)NC(=O)[C@@H](CC(C)C)NC(=O)[C@H](Cc1ccc(O)cc1)NC(=O)[C@H](CO)NC(=O)[C@H](Cc1c[nH]c2ccccc12)NC(=O)[C@H](Cc1c[nH]cn1)NC(=O)[C@@H]1CCC(=O)N1	measured: progesterone	healthy premenopausal women	intramuscular, 3.75 mg, ovulation progesterone ≥3 ng/mL		ovulation rate	0%
NC(=O)c1cnc2[nH]ccc2c1N[C@@H]1[C@@H]2CC3C[C@H]1C[C@@](O)(C3)C2	flow cytometry, measured: CD4+ naive T cells	Japanese healthy subjects, peripheral blood	oral, 100 mg twice daily, day 4		change from baseline	-2.73%
CC(C)[C@H](C(=O)Nc1ccc(C(=O)NO)cc1)c1ccccc1	volumetric MRI	human, right meningioma	dose not given, day 373		tumour growth rate	0 %/year
N#CCc1ccc(O)c(Cc2ccc(O)cc2)c1	ABTS radical		300 µg/mL		radical scavenging	79.7 ± 1.52%
O=C1c2ccncc2C(=O)c2c1[nH]c1ccccc21		female monocrotaline PAH rat	dose not given	reference: vehicle	pulmonary vascular resistance	decreased
O=C(O)CNC(=O)Cc1ccccc1		ventricular cardiomyocytes, C57BL/6 mouse	dose not given, 0.788 s		sarcomere length	1.71 µm
c1ccc(-c2n[nH]cc2-c2ccnc3ccccc23)nc1	kinase binding, competitor, MIB/MS competition, measured: ENV7	Candida albicans cell lysate	1 µM	reference: DMSO	log2 fold change	1.39
OCC(O)CO	ELISA	female Gpd2 knockout mice, serum	oral in drinking water, 5 % w/v, 2 days		plasma FGF21 level	222 pg/mL and 324 pg/mL and 990 pg/mL and 290 pg/mL and 287 pg/mL
O=C(O)CC(O)CC(=O)O	binding, equilibrium dialysis LC-MS		5 µM, thermostabilized A2AR-BRIL construct	reference: no-protein control, direction not given	z-scored log2 fold change	0.267
O=Cc1ccc(O)cc1	ABTS radical		300 µg/mL		radical scavenging	21.3 ± 0.88%
CN(C)C(=O)c1cc2cnc(Nc3ccc(N4CCNCC4)cn3)nc2n1C1CCCC1	RNA-seq GSEA, measured: HALLMARK_P53_PATHWAY	MB002 tumour	concentration not given, in vivo	reference: vehicle, direction not given	GSEA enrichment score	-0.285
N[C@@H](CS)C(=O)O	binding, equilibrium dialysis LC-MS		5 µM, thermostabilized A2AR-BRIL construct	reference: no-protein control, direction not given	z-scored log2 fold change	0.458
CN(C)C(=O)Oc1cccc([N+](C)(C)C)c1	neuromuscular block reversal	rat	dose not given, 13.5 (unit not given), added: cisatracurium	reference: T1 twitch	train-of-four ratio	95.1
O=P(O)(O)C(Cl)(Cl)P(=O)(O)O	immunostaining	mouse, SAH model, hippocampal fissure	dose not given, day 7	reference: total area	Iba1-positive area	2.11%

Excerpt of the above:
SMILES	test	test system	conditions	how to read	endpoint	result
CO[C@H]1CC[C@H](N2C(=O)CNc3ncc(-c4ccc(C(C)(C)O)nc4)nc32)CC1	flow cytometry	stimulated T cells, human, blood	45 mg single dose, 5 h, median	reference: baseline	p4EBP1 change from baseline	-48%
NC(N)=O	binding, equilibrium dialysis LC-MS		5 µM, thermostabilized A2AR-BRIL construct	reference: no-protein control, direction not given	z-scored log2 fold change	0.249
Cn1cc(Nc2nc(N)nc(-c3cccc(-n4ccc5cc(C6CC6)cc(F)c5c4=O)c3CO)n2)cn1	CD63 upregulation, anti-IgE-induced	human, multiple ascending dose, whole blood basophils ex vivo	50 mg twice daily, day 14, 4 h		inhibition	74.8%
Cn1cc(Nc2nccc(-c3ccc4c(c3)CN(C3COC3)CC[C@H]4NC(=O)c3cn(C(C)(C)C)nn3)n2)cn1	measured: p14/p19ARF in tumour suppression	splenic B cells, mice	30 mg/kg, IgD-activated in vivo	reference: vehicle, direction not given	pathway activation z-score	-1.13
N#Cc1ccc2c(c1)[C@H]1CCCN(C(=O)c3ccc4[nH]cnc4c3)[C@H]1C2	meal tolerance test	human, Phase II trial	240 mg once daily, day 28, AUC0-2 h, adjusted mean	reference: baseline	insulin AUC change	-79.1 pmol/h/L
Cc1c(C)n(Cc2cccc(OC(C)(C)C(=O)O)c2)c2ccc(C(=O)N[C@@H](C)c3ccc(C(C)(C)C)cc3)cc12		C57BL/6 mouse, diet-induced obesity, L4 vertebra	dose not given		tissue volume	2.79 ± 0.176 mm3
Oc1nc2nonc2cc1Nc1c(F)c(F)c(F)c(F)c1F		obese C57BL/6J mice, Western diet 19 weeks	oral gavage, 130 mg/kg/day, fasting		plasma free fatty acids	no effect
C[C@H](Oc1ccc(Br)cc1-c1ccon1)C(=O)O	last response peak	human, tibialis anterior muscle	400 mg, 15 Hz, single ascending dose		difference from placebo	7.29%
